# Published values from different studies.
# Compare with care: the assays were run in different laboratories. “And” joins repeats or separate records; there may be more than shown.
# GBA2: Beta-glucosidase (GBA2, Homo sapiens, UniProt Q9HCG7)
# Sequence of UniProt Q9HCG7 (whole entry, looked up): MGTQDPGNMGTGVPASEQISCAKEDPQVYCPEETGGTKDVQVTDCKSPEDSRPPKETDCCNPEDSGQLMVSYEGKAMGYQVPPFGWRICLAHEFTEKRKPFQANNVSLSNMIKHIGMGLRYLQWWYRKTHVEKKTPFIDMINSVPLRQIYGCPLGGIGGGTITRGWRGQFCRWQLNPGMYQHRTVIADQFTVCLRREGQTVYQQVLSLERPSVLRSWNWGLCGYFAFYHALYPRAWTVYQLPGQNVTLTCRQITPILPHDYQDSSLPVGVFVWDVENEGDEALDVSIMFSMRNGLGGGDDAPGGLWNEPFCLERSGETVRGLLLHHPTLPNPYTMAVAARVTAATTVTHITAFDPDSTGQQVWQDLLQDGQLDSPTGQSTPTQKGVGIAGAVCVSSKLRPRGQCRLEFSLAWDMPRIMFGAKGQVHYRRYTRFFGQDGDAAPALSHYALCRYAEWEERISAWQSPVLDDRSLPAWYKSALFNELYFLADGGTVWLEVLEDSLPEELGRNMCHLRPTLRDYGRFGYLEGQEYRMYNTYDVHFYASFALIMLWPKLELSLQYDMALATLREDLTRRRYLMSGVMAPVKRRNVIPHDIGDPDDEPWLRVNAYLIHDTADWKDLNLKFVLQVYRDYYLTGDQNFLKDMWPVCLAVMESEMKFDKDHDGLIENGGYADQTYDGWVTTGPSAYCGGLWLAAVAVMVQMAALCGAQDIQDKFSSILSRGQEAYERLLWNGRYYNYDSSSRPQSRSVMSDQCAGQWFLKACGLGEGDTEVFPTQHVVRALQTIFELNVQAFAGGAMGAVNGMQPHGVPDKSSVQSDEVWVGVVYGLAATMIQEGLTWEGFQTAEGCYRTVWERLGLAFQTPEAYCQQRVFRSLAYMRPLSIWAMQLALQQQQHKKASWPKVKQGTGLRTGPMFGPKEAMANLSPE
# Sequence of UniProt Q9HB29 (whole entry, looked up): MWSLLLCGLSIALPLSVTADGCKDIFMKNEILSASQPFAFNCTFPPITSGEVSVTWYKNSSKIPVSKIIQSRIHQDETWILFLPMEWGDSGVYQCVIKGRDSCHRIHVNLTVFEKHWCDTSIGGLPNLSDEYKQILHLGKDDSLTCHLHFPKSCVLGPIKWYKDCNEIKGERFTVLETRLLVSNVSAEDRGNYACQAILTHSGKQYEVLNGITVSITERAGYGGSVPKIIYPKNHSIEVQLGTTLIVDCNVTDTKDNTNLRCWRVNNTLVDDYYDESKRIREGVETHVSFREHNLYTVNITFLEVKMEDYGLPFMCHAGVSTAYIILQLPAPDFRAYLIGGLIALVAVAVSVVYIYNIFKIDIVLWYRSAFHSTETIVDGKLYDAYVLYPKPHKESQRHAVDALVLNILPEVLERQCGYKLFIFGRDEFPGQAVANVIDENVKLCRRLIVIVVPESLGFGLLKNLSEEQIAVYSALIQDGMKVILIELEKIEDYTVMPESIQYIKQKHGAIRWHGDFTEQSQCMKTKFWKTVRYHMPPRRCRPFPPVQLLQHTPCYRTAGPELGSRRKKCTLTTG
SMILES,target or system,test,system,setting,how to read,endpoint,result
CC(C)[C@@H]1NC(=O)[C@H](Cc2ccccc2)NC(=O)CSC[C@@H](C(N)=O)NC(=O)[C@H](CCC(=O)O)NC(=O)[C@H](CO)NC(=O)[C@H](Cc2c[nH]c3cccc(Cl)c23)NC(=O)[C@H](C2CCCCC2)NC(=O)[C@H](C(C)C)NC(=O)[C@H](Cc2ccc(O)cc2)NC(=O)[C@H](CC(=O)O)NC(=O)[C@H](Cc2c[nH]c3ccccc23)NC(=O)[C@H](Cc2ccc(N)nc2)NC(=O)[C@H](Cc2c[nH]c3ccc(Cl)cc23)NC(=O)[C@H](CCC(=O)O)NC1=O,"Interleukin-1 receptor-like 2 (IL1RL2, Homo sapiens, UniProt Q9HB29)","reporter gene (SEAP), inhibitor, HEK-Blue IL-36R reporter",HEK-Blue IL-36R cells,"0.046 µM, 6 h, with: IL-36γ 30 ng/mL",,remaining activity,87.3%
O=C(C[Se]C(=O)c1ccc2ccccc2n1)Nc1cccc(C(F)(F)F)c1,NCI60 colon subpanel,NCI60 five-dose screen,,,,GI50,4.76 µM
CCN(CC)CC(=O)Nc1cccc(-n2cc(-c3ccc4ccc(-c5cn(-c6cccc(NC(=O)CN(CC)CC)c6)nn5)cc4c3)nn2)c1,RCC4,"PCR angiogenesis array, item: TYMP",,"5 x IC50, 6 h, normoxia",reference: untreated,fold regulation,-1.24 fold
O=C(CCCCCOc1ccc2ccccc2c1)N[C@@H](CO)C[C@@H](O)c1ccc(-c2ccccc2)cc1,HeLa,"CERT activity, HPLC-MS/MS lipidomics, item: ceramide 20",,"1 µM, 24 h, not cell-number normalised",,ceramide level,124 pmol/sample and 106 pmol/sample and 151 pmol/sample
OC[C@@H]1[C@@H](O)[C@H](O)[C@@H](O)CN1CCCC(F)(F)COCc1ccc(-c2ccccc2)cc1,GBA2,"inhibitor, 4MU-β-D-glucopyranoside",HEK293T homogenates overexpressing GBA2,,reference: GCS IC50 over GBA2 IC50,selectivity ratio,60
COc1ccccc1-c1ccncc1C(=O)Nc1nnc(OCc2ccc(Cl)cc2)s1,MDA-MB-231,,,"0.1875 µM, single replicate",,colony count,36 and 34 and 24 and 25
CCN(C(=O)c1cc(F)ccc1Oc1nncnc1N1CCC2(C1)CN([C@H](CCCN(C)CCOC)C(C)C)C2)C(C)C,SAOS-2,cell growth or viability,,72 h,,GI50,> 10 µM
CNS(=O)(=O)Nc1nccc(Cc2c(C)c3ccc(Oc4ncccc4F)cc3oc2=O)c1F,SW626,cell viability,,7 days,,IC50,0.00245 µM
Cn1ncc2cc(-c3cncc(Cl)c3N3CCC4(CCNC4=O)CC3)ccc21,LS174T,"gene expression, microarray, item: SPAG4 mRNA",,"concentration not given, 24 h",reference: untreated cells,log2 fold change,2.75
COC1CN([C@H]2CC[C@H]([C@@]3(C)Oc4c(Cl)cc(C(=O)NCc5c(SC)cc(C)[nH]c5=O)c(C)c4O3)CC2)C1,,"RNA-seq, item: MPZL2","human, whole blood","dose not given, 24 h",reference: pretreatment baseline,log2 fold change,1.68
CN1CCCNC(=O)c2cccc(c2)C(=O)NCCCN(C)CCCNc2cccc3c2C(=O)c2cccc(c2C3=O)NCCC1,SAS,"RNA-Seq, item: GADD45B mRNA",,"5 µM, 6 h",reference: untreated cells,log2 fold change,2.25
CO[C@@H]1[C@@H](OC(N)=O)[C@@H](O)[C@H](Oc2ccc3c(O)c(NC(=O)c4ccc(O)c(CC=C(C)C)c4)c(=O)oc3c2C)OC1(C)C,DLD-1 parental,,,"50 µM, replicate 2",,colony count,71
CC(C)c1ccc(N(C)c2ccc3c(c2)OCC[C@H]3CNc2cnccc2C(=O)O)cc1,HCC827,"cell viability, CellTiter-Glo",,7 days,,IC50,≥ 10 µM
CCCCOCCCCCN1C[C@H](O)[C@@H](O)[C@H](O)[C@H]1CO,GBA2,"inhibitor, 4MU-β-D-glucopyranoside",HEK293T homogenates overexpressing GBA2,,reference: GCS IC50 over GBA2 IC50,selectivity ratio,67
Cc1ncsc1-c1ccc(C(C)NC(=O)C2CC(O)CN2C(=O)C(NC(=O)CCCCCCCCCCN2CCCC(Nc3ncc(Cl)c(Nc4ccccc4S(=O)(=O)C(C)C)n3)C2)C(C)(C)C)cc1 (stereo not shown),22Rv1,"RNA-seq, item: ZNF75D mRNA",,concentration not given,reference: DMSO,log2 fold change,-1.29
Cn1c(=O)n(C2CCC(=O)NC2=O)c2ccc(C3CCN(CC(=O)Nc4cccc(CS(=O)(=O)N5CC[C@H](Nc6cccc(-c7sc(C(=O)O)c(OCC(=O)O)c7Cl)c6)CC5(C)C)c4)CC3)cc21 (stereo partly shown),B16-F10,"HTRF, item: phospho-STAT1 Tyr701",,"1.1 µM, with: IFN-γ",reference: min-max normalised,pSTAT1 level,100% and 87.4% and 91.4% and 88.1% and 87.1% and 90.5%

# Excerpt of the above:
SMILES,target or system,test,system,setting,how to read,endpoint,result
OC[C@@H]1[C@@H](O)[C@H](O)[C@@H](O)CN1CCCC(F)(F)COCc1ccc(-c2ccccc2)cc1,GBA2,"inhibitor, 4MU-β-D-glucopyranoside",HEK293T homogenates overexpressing GBA2,,reference: GCS IC50 over GBA2 IC50,selectivity ratio,60
Cn1ncc2cc(-c3cncc(Cl)c3N3CCC4(CCNC4=O)CC3)ccc21,LS174T,"gene expression, microarray, item: SPAG4 mRNA",,"concentration not given, 24 h",reference: untreated cells,log2 fold change,2.75
